# Experimental data collected from several papers.
# Parts stem from different laboratories: compare values within a part only. Positions count from the first letter of the parent shown.

# Block 1 — method: RNA Bind-n-Seq; form: RNA; medium: in vitro; concentration: 365 nM; relative to: no-protein control; reading: higher = stronger binding
# Target: RNA binding protein fox-1 homolog 2, RRM domain, GST-SBP tag (RBFOX2, Homo sapiens, UniProt O43251-10, residues 100-194)
# Setting: natural RNA segment, single round, ends assumed
# Target sequence (chain): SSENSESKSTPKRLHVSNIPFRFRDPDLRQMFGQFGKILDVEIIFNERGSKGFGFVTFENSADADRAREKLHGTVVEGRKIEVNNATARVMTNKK
Sequence,RBNS enrichment (R)
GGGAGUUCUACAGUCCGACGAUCGAGCAGAAGAAAUACCAAAAUGUUUCCAAAAUUUUUUUAAAAGCUGAGAUUUCCAGCUUUAUAACCAAAGCUUGAUAUAUGUCACAUUGUCACAGAAGAGAGAAAAGAUCUGGAAUUCUCGGGUGCCAA,0.919
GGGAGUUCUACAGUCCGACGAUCGCAUUGAAGCAUUAAAAAUUAUUUUUCUUAAAAUCUCUUUAAGGCCUUCUUGUUGCUGUUAGAAUAGUGCUAUAUAUCAGGUAUGUGACCAUUUAUUUCAGAAGGCUGAAUGGAAUUCUCGGGUGCCAA,0.464
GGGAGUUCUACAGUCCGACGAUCGGCAAAGGCCCAGGGCACAGGCUUAUCACUCCAGUAUGGAUGGCGGGAGCUAGAGACCAGGAGAUAUGAGGCCAGUGUGAGCUGUGUCACAAGUUCCAGGUCAGCCUGUGUGGAAUUCUCGGGUGCCAA,0.621
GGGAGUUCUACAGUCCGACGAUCAGUUGGUACCUGCUUUAAGAAACUGUUACAGGGCUUGUUGGUAAUGUUUUGAAUCUUUGUAAAAAUUGAUAUUCUGUAUAACAGAGUGCCUCUCUGUUACUUUUGGCCUAUGGAAUUCUCGGGUGCCAA,2.8
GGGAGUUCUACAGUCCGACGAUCAGAAAUAGUAAACUUGCAGCUGCCCCUAAUGCAGCAUAUUUUUCUUACCAAAGGAGUCUUCAGCCCUAUAAAAGGAUUCCUCUAUAGUGUAUUUCUCUAGUGUAUUUAGUUGGAAUUCUCGGGUGCCAA,0.651
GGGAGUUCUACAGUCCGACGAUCAGCAAGCUACAAAGAGGGUGUGUCACACUGAAACUCAAUAGUUGAGUUUGGCUGUUGUUGCAGGAAAAUGAUUAUAACUAAAAGCUCUCUGAUAGUGCAGAGACUUACCAUGGAAUUCUCGGGUGCCAA,0.38
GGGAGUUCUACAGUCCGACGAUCACAUGACUAUAACUCUAGACCCAGAGAAUCUGAUGUUCUUCUCCUCUGAGGGCAUCUGAAUGCAUAUAGUGUGUGUGCAUGAACACAGCACUGGACAGUACACUCUGGUGUGGAAUUCUCGGGUGCCAA,4.61
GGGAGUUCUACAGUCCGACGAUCAAGGAGACAGUGACAAUGGGCAGUGGAUAGCCCUCACUCGUGAGUGUUUAAUGUUGCAGCAAACUCACCAAGAAGGAGACAAAUGGCUGUUUCGAAUGGAAGCUUUCUCAUGGAAUUCUCGGGUGCCAA,0.545
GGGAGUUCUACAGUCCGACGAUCCAGAGUGCAAGUGUGGGUGUCGGUGUGAGUUCACCUAACAAAUCAUGACCUUUAUCAUCAACUCUGAUUCGAUCCAUGCGUUUUUUUUAUACUAAGCAAUAACUUUACGAUGGAAUUCUCGGGUGCCAA,15.9
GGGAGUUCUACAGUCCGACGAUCCAGACCGAGAGGCCAGUUGAUCUGCUCUGUUUUAUACUAGUGACAAUAAAGAUUAUUUUUUGAUACACCUAUGAGUUCUGUCUGGCAAGGCCUGGCUGGCUGAAUCAAGAUGGAAUUCUCGGGUGCCAA,0.33
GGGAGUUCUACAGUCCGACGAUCCAGACUGAUUUCACCUAGAUUGUCACGGUUUCCUUCAUGUUAACUUUGCGUGACUUUGUUCUUCCUUUACUACUCUGUAUGUAAUAUAUAUACAUAUAUACGUACAUAUGUGGAAUUCUCGGGUGCCAA,0.209
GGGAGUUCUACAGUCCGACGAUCUCAGAUUCCCAGUAAACACCUCUGUAGGGGAUGAAGUUUCCAUGUCCCCCAUCUUCCUUUUGGUCACCUUCAUCUGUGUGUCAGUUAAGACACAGUGAGGGACAGCCCAGUGGAAUUCUCGGGUGCCAA,0.293

# Block 2 — target: CCNB3, cyclin fold, Cln2 fusion (human); method: yeast growth competition, sequencing; medium: yeast; setting: weak parent motif; relative to: not given; reading: higher = stronger binding
# Starting sequence: CDT1 docking peptide (human); PPARRRLRLSVDE; partner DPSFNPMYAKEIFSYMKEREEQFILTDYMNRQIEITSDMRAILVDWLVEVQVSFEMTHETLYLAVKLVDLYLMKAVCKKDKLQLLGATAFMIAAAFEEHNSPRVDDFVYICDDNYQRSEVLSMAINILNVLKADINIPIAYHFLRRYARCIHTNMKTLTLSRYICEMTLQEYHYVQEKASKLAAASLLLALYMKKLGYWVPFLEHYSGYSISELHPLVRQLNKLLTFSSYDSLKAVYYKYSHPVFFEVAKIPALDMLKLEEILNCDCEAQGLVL
Change,normalised enrichment score
PAARRRLRLSVDE [P2A],0.223
PPARRRLRLAVDE [S10A],-0.019
PPARRRLRFSVDE [L9F],1.27
PPARRRLRASVDE [L9A],0.102
PPAARRLRLSVDE [R4A],0.149
PPARRRLRLSADE [V11A],0.127
PPARRRLRLSVDA [E13A],0.406

# Block 3 — method: RNAcompete; form: RNA; medium: in vitro; concentration: 20 nM; setting: 7-mer, probes averaged, single round; relative to: mean of 7-mers; reading: higher = stronger binding
# Target: PABPC1L2, full length, GST fusion (mouse, UniProt A0ABA7IW68)
# Construct (chain): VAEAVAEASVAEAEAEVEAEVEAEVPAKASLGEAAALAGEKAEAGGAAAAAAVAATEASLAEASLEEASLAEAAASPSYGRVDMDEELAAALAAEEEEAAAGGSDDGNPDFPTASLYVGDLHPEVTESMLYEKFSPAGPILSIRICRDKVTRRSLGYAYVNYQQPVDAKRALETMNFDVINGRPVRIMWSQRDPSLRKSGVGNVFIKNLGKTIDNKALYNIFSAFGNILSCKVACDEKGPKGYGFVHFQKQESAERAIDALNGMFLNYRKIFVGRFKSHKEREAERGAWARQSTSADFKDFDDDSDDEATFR
Sequence,7-mer Z-score
ACGUAGA,-0.0138
CCAUUUU,-0.188
UCUAAAG,0.0932
GAGUUCG,-0.42
AUCCCUU,-0.269
GAGCUCU,-0.338
GGAUAGA,0.109
UGCGACG,0.104
ACGGUCC,-0.202
AUGGCCG,-0.0283
CACCGUU,-0.24
UGGGCUA,0.017
GUUACCU,-0.251
AGUUGGA,0.0913
GGAGACU,0.0388
CGGUCGU,-0.345
UUGACUG,-0.316
CCAGGAU,-0.182
AUUACUU,-0.282
CGCGCAG,-0.0863

# Single results of other studies
Substance,target,test,system,conditions,scale,quantity,value
"PhoQ, residues 284 288 289 292 302 303 ASTSDA","PhoP, residues 12 14 15 18 19 VHSCL (Escherichia coli, UniProt P23836)","Sort-seq, measured: YFP reporter",E. coli,"PhoQ-PhoP variant library, added: 10 µM Mg2+","relative to: high Mg2+ state, higher = stronger signaling",fold induction,2.27

# Repeated from above (block 3):
Sequence,7-mer Z-score
GGAUAGA,0.109
GGAGACU,0.0388
UUGACUG,-0.316
AUUACUU,-0.282
AUCCCUU,-0.269
AGUUGGA,0.0913
